Published values collected from several papers.
Numbered parts are unrelated; each lists some results of a single study. Changes are numbered by the printed parent chain.

Sample 1
Target: Histone acetyltransferase KAT6A, winged helix 1, GST fusion (KAT6A, Homo sapiens, UniProt Q92794, residues 1-85)
Technique: protein binding microarray
Molecule type: double-stranded DNA, one strand shown
Matrix: in vitro
Tested at: not given
Notes: 8-mer, flanks averaged, mean of 2 arrays, mostly near background
Baseline: not given
Reading: higher = stronger binding
Target sequence (chain): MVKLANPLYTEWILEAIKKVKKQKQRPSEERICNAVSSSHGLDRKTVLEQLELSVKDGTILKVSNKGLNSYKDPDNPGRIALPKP
Strand | E-score
ATAAGTAC | -0.0866
TTACATAA | -0.119
GATTGATA | -0.236
ACAAAAAC | -0.00363
ATCATTAA | -0.0638
ACTTGCAA | -0.181
AACGGCGG | 0.424
AACAAGAT | -0.0666
GCCCAAAA | -0.199
GTGACGAA | -0.0994
AACGGGCG | 0.384
CACTGGCA | -0.234
AAGAGGTA | -0.104
GTTCACAA | -0.113
TCGTACGA | -0.0998
ACTAAAAG | -0.111
CGTGTGTC | 0.0417
GCGATTTA | 0.135
AAGATCCA | -0.226
CGGCTGTC | 0.217
TAATACTA | -0.138
AAGTGTGG | -0.261
GGATCTTA | -0.0854
AGGGGTGA | -0.145
GATCGCAA | 0.0355

Sample 2
Target: CCND3, cyclin fold, Cln2 fusion (human)
Technique: yeast growth competition, sequencing
Matrix: yeast
Notes: weak parent motif
Baseline: not given
Reading: higher = stronger binding
Starting sequence: CDKN1A docking peptide (human); SKACRRLFGPVDS; partner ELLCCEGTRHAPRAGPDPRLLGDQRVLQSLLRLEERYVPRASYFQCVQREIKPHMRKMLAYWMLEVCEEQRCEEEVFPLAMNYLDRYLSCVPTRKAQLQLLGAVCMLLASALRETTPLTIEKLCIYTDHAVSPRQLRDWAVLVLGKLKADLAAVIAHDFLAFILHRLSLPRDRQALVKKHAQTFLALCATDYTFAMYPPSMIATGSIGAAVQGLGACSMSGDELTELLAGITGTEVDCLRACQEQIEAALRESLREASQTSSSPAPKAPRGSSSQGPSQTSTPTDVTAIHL
Change | normalised enrichment score
SHACRRLFGPVDS [K2H] | 0.348
SKACRRLFGHVDS [P10H] | 0.0224
SKACRRLTGPVDS [F8T] | -0.346
SIACRRLFGPVDS [K2I] | 0.537
SKACRRLFGPVRS [D12R] | 0.0914
SKACRRLLGPVDS [F8L] | -0.329
SKACARAFGPVDS [R5A L7A] | 0.166
SKAMRRLFGPVDS [C4M] | -0.31
SAACRRLFGPVDS [K2A] | 0.199
SKACRRLFGPVDA [S13A] | 0.198
SKACRRLFGDVDS [P10D] | 0.0716
SFACRRLFGPVDS [K2F] | 0.308
SKACRRLFGPSDS [V11S] | 0.477
SKACRRIFGPVDS [L7I] | 0.102
SRACRRLFGPVDS [K2R] | 0.291

Sample 3
Target: ABI1, truncated, D143A, DHFR fusion (Arabidopsis thaliana)
Technique: DHFR PCA, deep sequencing
Matrix: yeast
Notes: methotrexate growth selection, single substitutions
Added: (+)-ABA 0.032 µM
Baseline: wild-type fitted maximum
Reading: higher = stronger binding
Starting sequence: PYL1, truncated, DHFR fusion (Arabidopsis thaliana); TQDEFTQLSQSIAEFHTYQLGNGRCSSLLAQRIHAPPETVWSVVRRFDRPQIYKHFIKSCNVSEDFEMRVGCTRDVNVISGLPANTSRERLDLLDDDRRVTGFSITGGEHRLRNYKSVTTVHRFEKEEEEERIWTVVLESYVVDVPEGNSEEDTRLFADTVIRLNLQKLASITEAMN; partner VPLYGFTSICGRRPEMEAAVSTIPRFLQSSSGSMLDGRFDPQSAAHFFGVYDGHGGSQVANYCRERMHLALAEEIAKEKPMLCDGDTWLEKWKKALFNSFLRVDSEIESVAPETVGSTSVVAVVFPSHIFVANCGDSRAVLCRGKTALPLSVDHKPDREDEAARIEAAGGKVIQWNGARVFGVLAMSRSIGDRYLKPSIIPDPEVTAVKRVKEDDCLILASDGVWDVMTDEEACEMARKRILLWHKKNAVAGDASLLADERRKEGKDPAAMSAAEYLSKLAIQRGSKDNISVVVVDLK
Change | relative binding score
L112M | 6.31%
Q19M | 3.08%
L169V | -1.4%
P146N | -4.13%
R99W | 67.8%
D97P | 7.15%
S87D | 3.88%
S27G | 51.1%
L82Q | 10.8%
K54R | 15.1%
R111T | 6.93%
I57H | -13.2%
L20S | 30.8%
N61V | 50.2%
G107I | -3.57%

Other studies, line by line
Substance | target | assay | test system | setting | scale | quantity | value
PhoQ, residues 284 288 289 292 302 303 SSLVEF | PhoP, residues 12 14 15 18 19 GHCSL (Escherichia coli, UniProt P23836) | Sort-seq, measured: YFP reporter | E. coli | PhoQ-PhoP variant library, added: 10 µM Mg2+ | baseline: high Mg2+ state, higher = stronger signaling | fold induction | 13.1

Some of these lines once more (sample 2):
Change | normalised enrichment score
SKACARAFGPVDS [R5A L7A] | 0.166
SKAMRRLFGPVDS [C4M] | -0.31
SAACRRLFGPVDS [K2A] | 0.199
SKACRRLFGPVDA [S13A] | 0.198
SKACRRLFGDVDS [P10D] | 0.0716
SFACRRLFGPVDS [K2F] | 0.308
SKACRRLFGPSDS [V11S] | 0.477
SKACRRIFGPVDS [L7I] | 0.102
SRACRRLFGPVDS [K2R] | 0.291
